Assay results gathered from unrelated publications.
± gives the spread as reported.

Cc1cccc(C)c1OCC(N)c1ccccc1 (centres unmarked) — metabolic rate (human liver S9; 88 µM, 30 min, 37 °C): 0.1 ± 0.01 nmol/min/mg of protein
CCc1cc(Nc2nc(-c3ccc(-n4cnc(C)c4)c(F)c3)cs2)c(C)cc1C — terminal half-life (human, both sexes, plasma; oral, 200 mg, day 1, multiple dose, geometric mean): 6.4 h
CCCC(CCC)NC(=O)c1ccc(O)c(O)c1 — Cmax ratio (female Sprague-Dawley rats, plasma; oral, 200 mg/kg of parent drug; reference: 200 over 20 mg/kg dose): 12.1
Oc1ccc2ccccc2c1/N=N/c1ccc(/N=N/c2ccccc2)cc1 — measured concentration (extracted rat blood QC samples; 0.2 µg/L, 2 h, room temperature, short-term stability): 0.207 µg/L
CC(C)c1cnc(-c2cc(Cl)ccc2F)cc1Nc1ccncc1C(=O)NC(CO)CO — patients with anaemia (patients, phase I monotherapy; oral, dose not given, grade 5): 0%
CN[C@@H]1[C@H](O)[C@H](NC)[C@H]2O[C@]3(O)[C@H](O[C@@H]2[C@H]1O)O[C@H](C)C[C@@]3(O)CNCc1ccc(OC(F)(F)F)cc1 — clearance (rat; iv, 10 mg/kg): 8.83 mL/min/kg
O=c1nc(NO)ccn1[C@@H]1O[C@H](CO)[C@@H](O)[C@H]1O — mRNA level (RT-PCR, refers to: CYP3A9; rat, arthritis model, liver; oral, 80 mg/kg twice daily, 5 days; reference: untreated arthritic rats): 0.5 fold
[11CH3]c1ccc2nc(C3CCC3)n(-c3ccc4[nH]ncc4c3)c2n1 — absorbed radiation dose (standard human adult, kidneys): 5.9 µSv/MBq
NC[C@@H](C(=O)Nc1ccc(-c2cn[nH]c2)cc1)c1ccccc1 — conjunctival redness score (OECD 405 eye irritation; New Zealand White rabbit, eye; topical, 0.1%, 24 h (day 2), scale 0 to 3; direction not given): 0
O=C(NCCCN(CCCCN(CCCNC(=O)c1cccc(=O)n1[O-])C(=O)c1cccc(=O)n1[O-])C(=O)c1cccc(=O)n1[O-])c1cccc(=O)n1[O-].[89Zr+4] — intact complex (radio-TLC; PBS; 1 h, pH 7.4, 37 °C, added: Co^2+ 10-fold excess): 98.5 ± 2.2%
COc1cc(C)c(Cc2ccc(O)cc2)cc1[C@@H]1S[C@H](CO)[C@@H](O)[C@H](O)[C@H]1O — urinary excretion 0-24 h (Japanese T2DM patients, urine; 1 mg luseogliflozin, day 1, once daily; reference: dose): 5.86 ± 0.674%
CN1C(=O)[C@@H](Cc2ccc(O)c(I)c2)NC(=O)CNC(=O)[C@H](Cc2ccc3ccccc3c2)NC(=O)[C@H](CCCNC(=N)N)NC(=O)[C@H]1CCCNC(=O)c1ccc(CNC(=O)CN2CCN(CC(=O)O)CCN(CC(=O)O)CCN(CC(=O)O)CC2)cc1 [lutetium-177 labelled] — absorbed organ dose (SPECT/CT and planar imaging; human, bone marrow): 0.97 mGy/MBq
CCC(=O)N[C@@H](C)C(=O)OCC(=O)N[C@@H](C)C(=O)O — depolymerization half-life (water; pH 7, 37 °C): 51.9 h
Brc1ccc(Nc2nc(NN=Cc3c[nH]c4ccccc34)nc(N3CCOCC3)n2)cc1 — metabolic stability (human liver microsomes): stable
Cn1c(=O)oc2ccc(-c3ccc(CC(C#N)NC(=O)C4CNCCCO4)c(F)c3)cc21 (centres unmarked) — treatment-related adverse event incidence (refers to: blood bilirubin increased; human volunteers; oral, 40 mg, single ascending dose fed): 0%
CC/C=C\C/C=C\C/C=C\C/C=C\C/C=C\CCCCOC(CC)C(=O)O (centres unmarked) — tissue concentration (14C radiolabel; Wistar rats male, muscle; oral, 100 mg/kg, 8 h): 4.8 µg/g
C=CC(=O)Nc1cccc(-c2cnc3[nH]cc(C(=O)NC(C)(C)C)c3n2)c1 — white blood cells and haemoglobin (mouse; ip, dose not given, 14 days; reference: vehicle): no effect
COC(=O)C(c1ccccc1Cl)N1CCC(SCC(=O)c2cccc(OC)c2)C(=CC(=O)O)C1 (mixture of isomers) — deviation from nominal (HPLC-MS/MS; feline EDTA plasma; 100 ng/mL, 12 h, -80 °C, storage stability): 2%
[2H]C([2H])([2H])NC(=O)c1ccc(N2C(=S)N(c3ccc(C#N)c(C(F)(F)F)c3)C(=O)C2(C)C)cc1F — MRT (male human, plasma; oral, 80 mg, single dose, fasted): 169 h
Cc1[nH]c(/C=C2\C(=O)Nc3ccc(F)cc32)c(C)c1NC(=O)CCN1CCN(C)CC1 — elimination rate constant (Beagle dog, both sexes, plasma; oral, 3 mg/kg): 0.07 ± 0.01 h⁻¹
CC(C)[C@H](NC(=O)CNC(=O)[C@H](CCC(N)=O)NC(=O)[C@H](C)N)C(=O)O — half-life (LC-MS/MS; human, plasma; intravenous, 20 mg/kg three times daily, day 2, first dose, geometric mean): 0.14 h
CC1(C)CNC(=O)c2ccccc21 — clearance (Sprague-Dawley rat, male, plasma; intravenous, 1 mg/kg): 19 ± 6 mL/min/kg
C[C@H](NC(=O)c1ccc2c(c1)C(=O)OC21c2ccc(O)cc2Oc2cc(O)ccc21)C(=O)N[C@@H](CCCCN)C(=O)N[C@@H](C)C(=O)N[C@@H](CCCCN)C(=O)N[C@@H](C)C(=O)N[C@@H](CCCCN)C(=O)N[C@@H](C)C(=O)N[C@@H](CCCCN)C(=O)N[C@@H](C)C(=O)N[C@@H](CCCCN)C(=O)N[C@@H](C)C(=O)N[C@@H](CCCCN)C(=O)N[C@@H](C)C(=O)N[C@@H](CCCCN)C(=O)N[C@@H](C)C(=O)N[C@@H](CC(N)=O)C(=O)N[C@@H](C)C(=O)N[C@@H](CC(N)=O)C(=O)N[C@@H](C)C(=O)N[C@@H](CC(N)=O)C(=O)O — ratio of steady-state partition coefficient (bovine cartilage; +N over +F variant): 1.17
CC[C@@H](C)N([11CH3])C(=O)c1nc(-c2ccccc2)c2ccccc2n1 — plasma free fraction (ultrafiltration; rhesus monkey, plasma; baseline scan): 0.069 ± 0.004
CC(C)C[C@@H](NC(=O)[C@H](NC(=O)[C@H]1CCCN1)[C@H](C)O)C(=O)N[C@H](Cc1c[nH]cn1)C(=O)N[C@@H](C(=O)N[C@H](Cc1c[nH]cn1)C(=O)N[C@H](CC(N)=O)C(=O)N[C@H](CCCNC(=N)N)C(=O)N[C@H](CCCNC(=N)N)C(=O)N[C@H](CCCNC(=N)N)C(=O)N[C@H](CCCNC(=N)N)C(=O)N[C@H](CCCNC(=N)N)C(N)=O)[C@H](C)O — half-life (beagle dog, plasma; oral, 20 mg/kg, single dose): 62 h
O=C([O-])CN1CCN(CC(=O)[O-])CCN(CC(=O)NCC2CCC(C(=O)NC(Cc3ccc4ccccc4c3)C(=O)NCCCCC(NC(=O)NC(CCC(=O)O)C(=O)O)C(=O)O)CC2)CCN(CC(=O)[O-])CC1.[44Sc+3] (centres unmarked) — intact complex (transmetallation stability; 4 h, 37 °C, added: Mg2+ 10 mM): 97.7 ± 0.5%
COc1ccc(/C=C/c2ccc(-c3ccc(C)cn3)nc2)cc1 — radiative decay rate constant (TCSPC; water, HEPES 100 mM; pH 7.4, zinc complex): 0.12 ns⁻¹
CCC1(CC)C[C@@H](NC(=O)Nc2cccc3c(C)nccc23)c2cc(F)ccc2O1 — decrease in deep body temperature (rat; intraperitoneal, 3 mg/kg, ambient temperature 26 °C; reference: vehicle): ~1 °C
N=C(N)NCCC[C@@H]1NC(=O)[C@H](Cc2c[nH]c3ccccc23)NC(=O)[C@@H](CC2CCCCC2)NC(=O)[C@@H]2CCCN2C(=O)[C@@H](NC(=O)CCc2ccccc2)CCCNC1=O — distribution rate constant k12 (C57BL/6J mice, plasma; oral, 1 mg/kg, two-compartment model): < 0.001 h⁻¹
CC[C@H](C)[C@H](NC(=O)[C@H](CC(C)C)NC(=O)[C@H](Cc1c[nH]c2ccccc12)NC(=O)[C@H](C)NC(=O)[C@@H](NC(=O)[C@H](Cc1ccccc1)NC(=O)[C@H](CC(=O)O)NC(=O)[C@H](CCCNC(=N)N)NC(=O)[C@H](C)NC(=O)[C@H](C)NC(=O)[C@H](CC(C)C)NC(=O)[C@H](C)NC(=O)[C@H](CC(=O)O)NC(=O)[C@H](CC(C)C)NC(=O)[C@@H](NC(=O)[C@@H](NC(=O)[C@H](C)NC(=O)[C@H](CC(C)C)NC(=O)[C@H](CCC(=O)O)NC(=O)[C@H](CO)NC(=O)[C@H](CO)NC(=O)[C@H](Cc1ccccc1)NC(=O)[C@@H](NC(=O)CNC(=O)[C@H](CCC(=O)O)NC(=O)CNC(=O)[C@@H](N)Cc1cnc[nH]1)[C@@H](C)O)[C@@H](C)O)[C@@H](C)CC)[C@@H](C)CC)C(=O)N[C@@H](C)C(=O)N[C@H](C(=O)N[C@@H](CCCCN)C(=O)N[C@H](C(=O)N[C@H](C(=O)N[C@@H](CC(=O)O)C(=O)N[C@@H](CCCCN)C(=O)N[C@@H](CCCCN)C(=O)N[C@@H](CCCCN)C(=O)N[C@@H](CCCCN)C(=O)N[C@@H](CCCCN)C(=O)N[C@@H](CCCCN)C(N)=O)[C@@H](C)O)[C@@H](C)CC)[C@@H](C)O — terminal half-life (healthy humans, plasma; subcutaneous, 10 mg once weekly, 6 doses, day 36, mean): 254 h
CCC1CNC(CC)CN(C(C(=O)[O-])c2ccc(C(=O)[O-])cc2)C(CC)CN(CC(=O)[O-])C(CC)CN1.[Mn+2] (centres unmarked) — Mn uptake in liver (ICP-MS; BALB/c mouse, unanaesthetised; intravenous, 0.05 mmol/kg, 5 min; reference: injected dose): 8.55%
NCCCC(=O)OCC(=O)c1c(F)cc(O)cc1F.O=C(O)C(F)(F)F — quantum yield (photolysis, refers to: rearranged acid appearance; unbuffered water): 0.15

Some of these lines once more:
C[C@H](NC(=O)c1ccc2c(c1)C(=O)OC21c2ccc(O)cc2Oc2cc(O)ccc21)C(=O)N[C@@H](CCCCN)C(=O)N[C@@H](C)C(=O)N[C@@H](CCCCN)C(=O)N[C@@H](C)C(=O)N[C@@H](CCCCN)C(=O)N[C@@H](C)C(=O)N[C@@H](CCCCN)C(=O)N[C@@H](C)C(=O)N[C@@H](CCCCN)C(=O)N[C@@H](C)C(=O)N[C@@H](CCCCN)C(=O)N[C@@H](C)C(=O)N[C@@H](CCCCN)C(=O)N[C@@H](C)C(=O)N[C@@H](CC(N)=O)C(=O)N[C@@H](C)C(=O)N[C@@H](CC(N)=O)C(=O)N[C@@H](C)C(=O)N[C@@H](CC(N)=O)C(=O)O — ratio of steady-state partition coefficient (bovine cartilage; +N over +F variant): 1.17
CC[C@@H](C)N([11CH3])C(=O)c1nc(-c2ccccc2)c2ccccc2n1 — plasma free fraction (ultrafiltration; rhesus monkey, plasma; baseline scan): 0.069 ± 0.004
